Published values collected from several papers.
Compare with care: the assays were run in different laboratories. Several values in a cell are separate wells, animals, samples, runs or records. ± marks the error that the study gave. Converted amounts (≈) assume the structure as drawn.
Sequence of UniProt P06873 (whole entry, looked up): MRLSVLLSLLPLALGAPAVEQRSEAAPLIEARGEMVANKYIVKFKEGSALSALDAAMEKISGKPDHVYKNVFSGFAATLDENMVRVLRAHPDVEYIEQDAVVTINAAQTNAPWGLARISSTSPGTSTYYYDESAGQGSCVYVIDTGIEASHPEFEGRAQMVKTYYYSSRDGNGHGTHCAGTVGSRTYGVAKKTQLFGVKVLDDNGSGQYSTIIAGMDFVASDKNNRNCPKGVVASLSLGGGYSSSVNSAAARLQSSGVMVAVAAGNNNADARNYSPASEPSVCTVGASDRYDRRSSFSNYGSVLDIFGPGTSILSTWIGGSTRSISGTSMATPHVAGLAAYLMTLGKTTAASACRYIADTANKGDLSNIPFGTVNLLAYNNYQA
Sequence of UniProt O95347 (whole entry, looked up): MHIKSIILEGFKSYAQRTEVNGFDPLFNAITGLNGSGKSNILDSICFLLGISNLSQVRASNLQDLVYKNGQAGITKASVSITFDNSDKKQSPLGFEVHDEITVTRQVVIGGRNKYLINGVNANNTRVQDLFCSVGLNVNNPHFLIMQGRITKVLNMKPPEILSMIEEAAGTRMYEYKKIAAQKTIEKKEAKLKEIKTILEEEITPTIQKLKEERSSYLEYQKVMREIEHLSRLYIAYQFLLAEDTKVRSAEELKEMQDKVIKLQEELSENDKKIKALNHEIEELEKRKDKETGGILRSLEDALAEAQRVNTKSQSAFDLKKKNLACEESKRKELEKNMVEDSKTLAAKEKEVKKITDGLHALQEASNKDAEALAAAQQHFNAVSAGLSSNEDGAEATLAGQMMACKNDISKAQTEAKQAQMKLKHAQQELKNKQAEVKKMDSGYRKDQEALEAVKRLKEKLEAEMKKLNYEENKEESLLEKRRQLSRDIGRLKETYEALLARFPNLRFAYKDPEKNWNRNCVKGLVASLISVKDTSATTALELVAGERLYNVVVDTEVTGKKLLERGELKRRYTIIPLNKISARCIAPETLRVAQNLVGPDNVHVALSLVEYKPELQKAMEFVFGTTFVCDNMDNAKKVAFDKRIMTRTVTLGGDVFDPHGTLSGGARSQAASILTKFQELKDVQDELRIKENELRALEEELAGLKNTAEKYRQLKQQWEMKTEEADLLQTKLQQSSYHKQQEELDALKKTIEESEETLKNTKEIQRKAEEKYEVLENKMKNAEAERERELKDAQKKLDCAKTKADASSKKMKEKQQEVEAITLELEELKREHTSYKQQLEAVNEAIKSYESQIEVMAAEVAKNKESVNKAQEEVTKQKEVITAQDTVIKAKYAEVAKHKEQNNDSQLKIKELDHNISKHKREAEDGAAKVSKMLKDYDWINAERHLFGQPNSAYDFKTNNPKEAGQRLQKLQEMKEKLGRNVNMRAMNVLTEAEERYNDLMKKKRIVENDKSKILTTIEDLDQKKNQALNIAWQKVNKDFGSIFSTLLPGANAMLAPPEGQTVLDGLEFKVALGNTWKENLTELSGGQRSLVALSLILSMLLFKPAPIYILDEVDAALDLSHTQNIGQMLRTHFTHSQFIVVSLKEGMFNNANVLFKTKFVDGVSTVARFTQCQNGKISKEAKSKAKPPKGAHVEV
Sequence of UniProt P08575 (whole entry, looked up): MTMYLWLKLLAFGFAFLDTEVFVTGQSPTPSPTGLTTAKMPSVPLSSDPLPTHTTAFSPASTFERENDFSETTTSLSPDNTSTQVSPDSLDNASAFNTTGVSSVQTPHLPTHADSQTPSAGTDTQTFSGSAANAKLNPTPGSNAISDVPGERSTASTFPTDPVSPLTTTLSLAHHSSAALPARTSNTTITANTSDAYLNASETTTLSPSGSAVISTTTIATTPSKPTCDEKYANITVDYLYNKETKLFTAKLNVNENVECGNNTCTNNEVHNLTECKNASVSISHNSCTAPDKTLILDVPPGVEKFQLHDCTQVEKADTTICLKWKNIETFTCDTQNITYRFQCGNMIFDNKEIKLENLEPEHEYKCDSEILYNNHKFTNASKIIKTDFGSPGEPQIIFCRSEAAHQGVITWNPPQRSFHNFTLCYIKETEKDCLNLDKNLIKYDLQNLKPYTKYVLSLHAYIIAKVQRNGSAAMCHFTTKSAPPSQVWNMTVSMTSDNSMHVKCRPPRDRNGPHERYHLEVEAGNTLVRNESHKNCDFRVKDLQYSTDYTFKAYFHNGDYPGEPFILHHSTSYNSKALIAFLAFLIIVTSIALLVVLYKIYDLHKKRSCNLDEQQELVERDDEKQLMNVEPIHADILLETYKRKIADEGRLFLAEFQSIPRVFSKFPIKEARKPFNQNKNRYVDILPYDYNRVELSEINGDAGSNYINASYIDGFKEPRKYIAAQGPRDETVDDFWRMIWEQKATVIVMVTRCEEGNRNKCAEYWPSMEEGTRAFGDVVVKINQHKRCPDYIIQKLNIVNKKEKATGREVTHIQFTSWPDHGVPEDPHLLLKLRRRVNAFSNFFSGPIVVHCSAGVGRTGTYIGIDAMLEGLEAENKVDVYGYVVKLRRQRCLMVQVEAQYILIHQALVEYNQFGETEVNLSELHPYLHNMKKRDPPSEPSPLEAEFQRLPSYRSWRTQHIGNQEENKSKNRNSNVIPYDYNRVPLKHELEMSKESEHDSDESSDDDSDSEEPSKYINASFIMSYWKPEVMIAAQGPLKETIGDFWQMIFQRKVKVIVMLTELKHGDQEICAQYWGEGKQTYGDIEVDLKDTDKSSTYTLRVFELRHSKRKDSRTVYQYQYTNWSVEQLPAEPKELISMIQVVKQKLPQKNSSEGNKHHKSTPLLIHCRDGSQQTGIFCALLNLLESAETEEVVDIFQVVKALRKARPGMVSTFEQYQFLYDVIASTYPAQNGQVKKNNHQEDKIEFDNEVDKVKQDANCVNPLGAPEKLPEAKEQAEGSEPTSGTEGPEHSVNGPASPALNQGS
Sequence of UniProt Q14973 (whole entry, looked up): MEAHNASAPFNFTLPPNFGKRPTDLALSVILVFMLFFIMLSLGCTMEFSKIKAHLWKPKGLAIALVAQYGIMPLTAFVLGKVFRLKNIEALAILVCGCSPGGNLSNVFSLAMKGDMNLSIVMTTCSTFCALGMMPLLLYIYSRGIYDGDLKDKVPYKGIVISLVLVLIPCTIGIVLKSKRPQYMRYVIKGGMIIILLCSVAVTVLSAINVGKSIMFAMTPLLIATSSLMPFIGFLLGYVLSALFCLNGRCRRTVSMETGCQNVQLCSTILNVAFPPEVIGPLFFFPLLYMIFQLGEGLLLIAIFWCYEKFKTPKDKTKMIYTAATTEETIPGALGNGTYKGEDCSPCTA
Sequence of UniProt P08684 (whole entry, looked up): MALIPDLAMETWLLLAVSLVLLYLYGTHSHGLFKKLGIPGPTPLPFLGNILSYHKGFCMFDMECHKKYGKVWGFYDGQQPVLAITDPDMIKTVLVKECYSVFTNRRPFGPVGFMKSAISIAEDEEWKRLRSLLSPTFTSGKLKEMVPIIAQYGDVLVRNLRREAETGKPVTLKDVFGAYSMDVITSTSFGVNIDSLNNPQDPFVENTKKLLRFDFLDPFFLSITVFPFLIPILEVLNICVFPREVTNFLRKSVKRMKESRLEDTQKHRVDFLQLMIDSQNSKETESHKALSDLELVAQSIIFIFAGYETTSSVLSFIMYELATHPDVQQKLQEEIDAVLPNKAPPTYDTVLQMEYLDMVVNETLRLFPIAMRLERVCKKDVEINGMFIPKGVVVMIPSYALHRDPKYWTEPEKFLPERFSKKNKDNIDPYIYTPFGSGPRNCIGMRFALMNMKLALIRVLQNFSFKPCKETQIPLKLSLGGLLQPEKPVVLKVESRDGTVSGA
Sequence of UniProt Q9HAW8 (whole entry, looked up): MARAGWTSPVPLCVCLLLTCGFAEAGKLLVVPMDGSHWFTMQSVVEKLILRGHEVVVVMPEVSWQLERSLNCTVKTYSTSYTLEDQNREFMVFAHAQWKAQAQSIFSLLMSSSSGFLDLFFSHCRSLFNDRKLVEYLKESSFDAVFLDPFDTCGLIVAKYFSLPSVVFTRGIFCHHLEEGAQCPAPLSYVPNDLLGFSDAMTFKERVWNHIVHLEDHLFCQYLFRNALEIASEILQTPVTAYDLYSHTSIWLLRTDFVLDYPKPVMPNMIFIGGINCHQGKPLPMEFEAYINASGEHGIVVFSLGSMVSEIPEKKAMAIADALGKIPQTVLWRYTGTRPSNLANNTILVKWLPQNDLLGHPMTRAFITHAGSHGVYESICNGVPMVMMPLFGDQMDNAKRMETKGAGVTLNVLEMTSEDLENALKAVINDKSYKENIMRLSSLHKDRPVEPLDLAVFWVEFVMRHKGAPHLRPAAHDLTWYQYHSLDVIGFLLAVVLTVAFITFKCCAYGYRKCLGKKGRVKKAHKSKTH

With Cc1ncc2n1-c1ccc(Cl)cc1C(c1ccccc1F)=NC2 the CL/F was 104 L/h (Cytochrome P450 3A4 (CYP3A4, Homo sapiens, UniProt P08684); human, plasma; oral, 2 mg, day 1, alone, arithmetic mean).
For Cc1cc(C(=O)NC(C)(C)COc2cccc3c2C(N)=NS(=O)(=O)N3)cc(C)n1, the revertant ratio was 0.9 (Salmonella typhimurium; Ames test, confirmatory; TA98; 1000 µg/plate; reference: solvent control).
COc1cccc(-c2n[nH]c(SCc3ccccn3)n2)c1OC: “revertant colonies per plate” 15 (Salmonella typhimurium; Ames test, plate incorporation; TA1535; 0.031 mg/plate, without S9).
CC(C)[C@@H]1NC(=O)[C@H](Cc2ccccc2)NC(=O)[C@@H]2NC(=O)[C@H](Cc3ccccc3)NC(=O)[C@@H]3CCCN3C(=O)CNC(=O)[C@H](Cc3ccccc3)NC(=O)[C@@H]3CNCCCC[C@@H](C(=O)O)NC(=O)[C@@H]4NC(=O)[C@H](CC(N)=O)NC(=O)CNC(=O)[C@H]([C@@H](O)C(=O)O)NC(=O)[C@H](CSC[C@@H](NC(=O)[C@H](CCC(N)=O)NC(=O)[C@H](CCCCNC(=O)c5ccc(NN)nc5)NC(=O)[C@@H](N)CS[C@H]4C)C(=O)N[C@@H](CS[C@H]2C)C(=O)N3)NC1=O [technetium-99m labelled] gave a tissue uptake of 0.02 %ID/g (rat, saline control, muscle; intravenous, 2 h after tracer, tracer 24 h after reperfusion).
Under “log2 fold change”, CC[C@H](C)[C@@H]1NC(=O)[C@@H]2CCCN2C(=O)[C@H](CC(C)C)NC(=O)[C@H](CC(C)C)NC(=O)CNC(=O)[C@@H](NC(=O)[C@@H](NC(=O)[C@H](CC(=O)O)NC(=O)CNC(=O)[C@@H](NC(=O)[C@H](C)NC(=O)CNC(=O)[C@H](CCCCN)NC(=O)[C@H](CC(C)C)NC(=O)[C@H](CC(C)C)NC(=O)[C@H](CCCCN)NC(=O)CNC(=O)[C@@H](NC(=O)[C@@H](N)CC(C)C)C(C)C)C(C)C)C(C)C)CSSC[C@@H](C(=O)O)NC1=O is recorded as -2.33 (RNA-seq, refers to: Col3a1; mouse, traumatic brain injury model, frontal cortex and hippocampus; dose not given; reference: TBI alone).
O=[N+]([O-])c1ccc(N2CCN(CCC(O)c3ccc(F)cc3)CC2)c(C(F)(F)F)c1 (stereo not shown) gave a survival of 88.9% (Salmonella typhimurium; SOS/umu test; TA1535/pSK1002, TGA medium; 0.000244 mg/mL, 4 h, together with: 10% rat liver S9).
For CN1CC[C@@H](c2c(O)cc(O)c3c(=O)cc(-c4ccc(C(F)(F)F)cc4Cl)oc23)[C@@H]1CO, “patients with adverse event” read 25% (refers to: Neutropenia; relapsed AML; oral, 150 mg, grade 3-4, intermittent dosing).
Under “relative enzyme contribution”, CC(C)=CC1C(C(=O)OC(C#N)c2cccc(Oc3ccccc3)c2)C1(C)C (stereo not shown) is recorded as 33% (human cytosolic CES1; IVIVE from expressed enzymes; human, 5 years old; reference: total hepatic CLint in vivo).
O=C(O)C[C@H](NC(=O)[C@H](CC(=O)O)NC(=O)[C@H](CC(=O)O)NC(=O)[C@H](CC(=O)O)NC(=O)[C@H](CC(=O)O)NC(=O)[C@H](CC(=O)O)NC(=O)[C@H](CC(=O)O)NC(=O)[C@H](CC(=O)O)NC(=O)[C@H](CC(=O)O)NC(=O)[C@H](CC(=O)O)NC(=O)[C@H](CC(=O)O)NC(=O)[C@H](CCCCNC(=O)c1ccc(C(=O)NCCOCCOB2BBBBBB3BBBB3B2)cc1)NC(=O)CN1CCN(CC(=O)O)CCN(CC(=O)O)CCN(CC(=O)O)CC1)C(=O)O [gallium-67 labelled] has a tissue uptake of 0.11 %ID/g (gamma counting; ddY mouse, male, 6 weeks old, brain; intravenous, 37 kBq, 10 min).
With O=C(O)c1cn(Cc2ccc(F)cc2)c2ccccc12 the Km was 38.5 ± 7.5 µM (UGT1A10 (Homo sapiens, UniProt Q9HAW8); glucuronidation, substrate).
For [Cl-].[Cl-].[Pt+2].[Ru+2].c1ccc(-c2nc3cc4ccccc4cc3nc2-c2ccccn2)nc1.c1cnc2c(c1)ccc1cccnc12.c1cnc2c(c1)ccc1cccnc12, the survival rate was 100% (Danio rerio; embryos; 90 µM, 0 h).
Nc1ncnc2c([C@@H]3N[C@H](CO)[C@@H](O)[C@H]3O)c[nH]c12 has a cell number of 5900 and 6000 (HeLa; 12.5 µM).
COc1cc(Nc2ncc(F)c(Nc3ccc4c(n3)NC(=O)C(C)(C)O4)n2)cc(OC)c1OC gave an IC50 of greater than 10 µM (PTPRC (Homo sapiens, UniProt P08575); CD45).
The survival of O=[N+]([O-])c1ccc(N2CCC(NCCC(O)c3ccc(F)c4ccccc34)CC2)c(C(F)(F)F)c1 (stereo not shown) is reported as 56.3% (Salmonella typhimurium; SOS/umu test; TA1535/pSK1002; 0.031 mg/mL, 4 h, without S9, full range).
OCc1ncc2n1-c1ccc(Cl)cc1C(c1ccccc1F)=NC2 — result for “geometric LS mean ratio of AUClast”: 1.05 (CYP3A4 (human); human, plasma; oral, 2 mg midazolam, Day 14, together with: encorafenib at steady state; reference: Day -7).
Under “treatment-related AE causing dose modification”, O=C(c1ccc(F)c(F)c1Nc1ccc(I)cc1F)N1CC(O)([C@@H]2CCCCN2)C1 is recorded as 17% (human patients; oral, dose not given, dose escalation, tablet).
The CC50 of CO[C@H]1/C=C/O[C@@]2(C)Oc3c(C)c(O)c4c(O)c(c(/C=N/N5CCN(C6CCCC6)CC5)c(O)c4c3C2=O)NC(=O)/C(C)=C\C=C\[C@H](C)[C@H](O)[C@@H](C)[C@@H](O)[C@@H](C)[C@H](OC(C)=O)[C@@H]1C is reported as 145 µM (Aedes albopictus cells).
The CLint of O=C(O)C(F)(F)C(F)(F)C(F)(F)C(F)(F)C(F)(F)C(F)(F)C(F)(F)F is reported as 6.53 ± 2.06 µL/min/mg (SLC10A1 (Homo sapiens, UniProt Q14973); uptake, substrate; HEK293 cells stably expressing SLC10A1, HBSS with HEPES; pH 7.4).
With CCc1cccc(N(C)C(=N)Nc2cccc3ccccc23)c1 the IC50 was 1 µM (Plasmodium falciparum; W2).
CC1(C)C(/C=C(\Cl)C(F)(F)F)C1C(=O)OC(C#N)c1cccc(Oc2ccccc2)c1 (stereo not shown): “enzyme contribution to CLint” 0.02% (human microsomal CES2; IVIVE from expressed enzymes; human, liver, in vivo scaled; age-specific).
For CC[C@H](C)[C@H](NC(=O)[C@H](Cc1ccccc1)NC(=O)[C@H](CCC(=O)O)NC(=O)[C@H](CCCNC(=N)N)NC(=O)[C@H](C)NC(=O)[C@H](C)NC(=O)[C@H](CCC(N)=O)NC(=O)[C@H](CCC(=O)O)NC(=O)[C@H](CCC(=O)O)NC(=O)[C@H](CC(C)C)NC(=O)[C@H](Cc1ccc(O)cc1)NC(=O)[C@H](CO)NC(=O)[C@H](CO)NC(=O)[C@@H](NC(=O)[C@H](CC(=O)O)NC(=O)[C@H](CO)NC(=O)[C@@H](NC(=O)[C@H](Cc1ccccc1)NC(=O)[C@@H](NC(=O)CNC(=O)[C@H](CCC(=O)O)NC(=O)[C@H](C)NC(=O)CCc1c[nH]cn1)[C@@H](C)O)[C@@H](C)O)C(C)C)C(=O)N[C@@H](C)C(=O)N[C@@H](Cc1c[nH]c2ccccc12)C(=O)N[C@@H](CC(C)C)C(=O)N[C@H](C(=O)N[C@@H](CCCNC(=N)N)C(=O)NCC(=O)N[C@@H](CCCNC(=N)N)C(=O)N[C@@H](CCCCNC(=O)COCCOCCNC(=O)COCCOCCNC(=O)CC[C@H](NC(=O)CCCCCCCCCCCCCCCCC(=O)O)C(=O)O)C(=O)NCC(=O)NCC(=O)N[C@@H](CO)C(=O)N[C@@H](CCCCNc1c(NCCCCCN(O)C(=O)CCC(=O)NCCCCCN(O)C(=O)CCC(=O)NCCCCCN(O)C(C)=O)c(=O)c1=O)C(=O)O)C(C)C [zirconium-89 labelled], the tissue uptake was 0.41 %ID/g (gamma counting; rat, stomach-duodenum; intravenous, 3 nmol/kg, 168 h).
For CC(=O)N1CCC(C(=O)N2CCN3C(=O)c4cc(-c5ccccc5)ccc4NC(=O)C3C2)CC1 (stereo not shown), “revertants per plate” read 26 (Escherichia coli; WP2 uvrA; 158 µg/plate, without S9).
Under “grade 3 Thrombocytopenia”, COc1cc2c(Oc3ccc4[nH]c(C)cc4c3F)ccnc2cc1OCC1(N)CC1 is recorded as 0% (paediatric recurrent refractory sarcoma; 8 mg/kg).
With C#Cc1ccc2c(c1)C(c1ccccn1)=NCc1c(-c3cnco3)ncn1-2 the solubility was 4290 µg/mL (≈ 12.2 mM) (DMSO; 24 h, 25 °C, thermodynamic equilibrium).
For CC[C@]1(O)C[C@H]2CN(CCc3c([nH]c4ccccc34)[C@@](C(=O)OC)(c3cc4c(cc3OC)N(C=O)[C@H]3[C@@](O)(C(=O)OC)[C@H](OC(C)=O)[C@]5(CC)C=CCN6CC[C@]43[C@@H]65)C2)C1, the IC50 was 3.16 µM (Plasmodium falciparum; GB4).
O=c1ccc2ccccc2o1 has a chance response of 0.29% (NHEK; cell count; concentration not given, 6 h, PGC1alpha mitochondrial stress panel).
With CC(C)CC(=O)OC[C@H]1O[C@@](C#N)(c2ccc3c(N)ncnn23)[C@H](O)[C@@H]1O the recovery was 55.8% (ABCB1 (Homo sapiens, UniProt P08183); apical to basolateral transport; Caco-2; 9 µM, 2 h, together with: verapamil 100 µM).
Under “relative enzyme contribution”, CC1(C)[C@H](C=C(Cl)Cl)[C@H]1C(=O)OCc1cccc(Oc2ccccc2)c1 is recorded as 6.95% (human microsomal CES2; IVIVE from expressed enzymes; human, 5 years old, expressed human CES2; 0.1 µM; reference: total hepatic CLint in vivo).
For CCCC[C@H](NC(C)=O)C(=O)N[C@@H](CO)C(=O)N[C@H](C(=O)N1CCC[C@H]1C(=O)N[C@@H](C)C(=O)N[C@@H](CCCNC(=N)N)C(=O)N[C@@H](CCCNC(=N)N)C(=O)N[C@@H](CCCNC(=N)N)C(=O)N[C@@H](CC(C)C)C(=O)N[C@@H](CCCC)C(=O)N[C@@H](CCCNC(=N)N)C(=O)N[C@@H](CC(=O)O)C(=O)N[C@@H](Cc1ccccc1)C(=O)N[C@@H](CCCCN)C(=O)N[C@@H](CCCNC(=N)N)C(=O)N[C@@H](CC(C)C)C(=O)N[C@@H](CCC(N)=O)C(N)=O)[C@@H](C)O, “remaining intact peptide” read 7.5% and 10% (Proteinase K (PROK, Engyodontium album, UniProt P06873); substrate, LC-MS; 25 µM, 61.4 min, pH 7.4).
For C[C@H]1CN(c2n[nH]c3nc(N[C@H]4CC[C@H](NS(=O)(=O)CCC(F)(F)F)CC4)ncc23)CCO1, the remaining binding was 1.23 (Structural maintenance of chromosomes protein 2 (Homo sapiens, UniProt O95347); Kinobeads competition, refers to: SMC2; 20 µM, unit not given; reference: vehicle).
With CO[C@H]1C[C@@H]2CC[C@@H](C)[C@@](O)(O2)C(=O)C(=O)N2CCCC[C@H]2C(=O)O[C@H]([C@H](C)C[C@@H]2CC[C@@H](OC(=O)NCCOCCOCCOCCOCCOCCOCCOCCOCCC(=O)N3CCc4cc(Cn5nc(-c6ccc7oc(N)nc7c6)c6c(N)ncnc65)ccc4C3)[C@H](OC)C2)C[C@@H](O)[C@H](C)/C=C(\C)[C@@H](O)[C@@H](OC)C(=O)[C@H](C)C[C@H](C)/C=C/C=C/C=C/1C the anaemia incidence was 43.8% (patients with advanced solid tumours; intravenous, 8 mg weekly, any grade).

For quick reference, copied from above:
For CC(=O)N1CCC(C(=O)N2CCN3C(=O)c4cc(-c5ccccc5)ccc4NC(=O)C3C2)CC1 (stereo not shown), “revertants per plate” read 26 (Escherichia coli; WP2 uvrA; 158 µg/plate, without S9).
The CC50 of CO[C@H]1/C=C/O[C@@]2(C)Oc3c(C)c(O)c4c(O)c(c(/C=N/N5CCN(C6CCCC6)CC5)c(O)c4c3C2=O)NC(=O)/C(C)=C\C=C\[C@H](C)[C@H](O)[C@@H](C)[C@@H](O)[C@@H](C)[C@H](OC(C)=O)[C@@H]1C is reported as 145 µM (Aedes albopictus cells).
